Measurements pooled from the literature.
A part holds a random share of what one study measured. Several values in a cell are separate wells, animals, samples, runs or records.
Chain of UniProt P15056 (whole entry, unmodified, looked up): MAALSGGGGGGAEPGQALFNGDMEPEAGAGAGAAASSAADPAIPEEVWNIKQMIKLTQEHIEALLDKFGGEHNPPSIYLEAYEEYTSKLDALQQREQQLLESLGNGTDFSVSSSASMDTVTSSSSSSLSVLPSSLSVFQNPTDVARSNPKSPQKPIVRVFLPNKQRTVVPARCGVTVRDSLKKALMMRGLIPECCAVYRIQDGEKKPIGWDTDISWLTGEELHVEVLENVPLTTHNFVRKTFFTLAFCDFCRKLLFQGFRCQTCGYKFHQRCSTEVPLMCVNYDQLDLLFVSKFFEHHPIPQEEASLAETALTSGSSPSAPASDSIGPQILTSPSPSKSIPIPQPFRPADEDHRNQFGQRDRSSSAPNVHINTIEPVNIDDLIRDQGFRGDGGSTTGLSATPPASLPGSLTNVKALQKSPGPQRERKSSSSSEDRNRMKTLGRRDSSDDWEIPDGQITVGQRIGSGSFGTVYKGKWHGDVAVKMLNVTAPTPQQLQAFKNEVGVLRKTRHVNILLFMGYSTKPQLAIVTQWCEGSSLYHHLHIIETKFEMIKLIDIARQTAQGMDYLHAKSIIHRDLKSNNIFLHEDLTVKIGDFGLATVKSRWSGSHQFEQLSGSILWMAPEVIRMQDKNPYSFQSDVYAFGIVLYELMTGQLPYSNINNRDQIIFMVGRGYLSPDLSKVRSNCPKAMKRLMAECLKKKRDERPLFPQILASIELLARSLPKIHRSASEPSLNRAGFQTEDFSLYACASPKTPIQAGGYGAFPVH

Block 1
SMILES: Cc1ccc(O)c(C)c1-c1cnc2[nH]c(-c3cnc(N4CCC5(CC4)CC(N4CCN(c6ccc(N[C@H]7CCC(=O)NC7=O)cc6F)CC4)CO5)nc3)cc2c1C#N (single isomer, unassigned)
target	assay	setting	how to read	remaining binding
CSF1R	KINOMEscan	1000 nM	reference: control	49%
BRAF (Homo sapiens, UniProt P15056, V600E)	binding, competition with immobilised ligand	1 µM		20%
PKMYT1	KINOMEscan	1000 nM	reference: control	0%

Block 2
Compound: CC(C)=CCN1C(=O)C(O)(C(=O)O)Oc2cc(F)ccc21 (centres unmarked)
Organism: Arabidopsis thaliana
Strain: Col-0
setting	hypocotyl length
25 µg/mL, seed germination, single repetition	1.9 cm and 1.87 cm and 1.81 cm and 1.83 cm and 1.82 cm
3.125 µg/mL, seed germination, single repetition	2.12 cm and 2.1 cm and 2.11 cm
12.5 µg/mL, seed germination, repetition mean	2 cm

Other studies, line by line
Compound	tested on	assay	system	setting	quantity	value
CCn1cnc2c(NCc3nc4ccc(F)c(F)c4[nH]3)nc(N3CCn4ncnc4C3)nc21	MDA-MB-468	cell growth or viability		5 days	EC50	48.5 nM
Cc1nc(C)c(C=[N+]([O-])C(C)(C)C)nc1C		HPLC-ECD	MPTP mouse model, striatum	90 mg/kg	striatal dopamine content	5.87 ng/mg tissue and 5.03 ng/mg tissue and 4.8 ng/mg tissue and 5.6 ng/mg tissue and 7.12 ng/mg tissue and 4.82 ng/mg tissue and 5.64 ng/mg tissue

Repeated from above (other studies, line by line):
Compound	tested on	assay	system	setting	quantity	value
CCn1cnc2c(NCc3nc4ccc(F)c(F)c4[nH]3)nc(N3CCn4ncnc4C3)nc21	MDA-MB-468	cell growth or viability		5 days	EC50	48.5 nM
